Experimental data collected from several papers.
Protocols differ between the studies behind these lines. Values joined by “and” are separate records of one study, mostly repeats; a detail may differ. ± marks the error that the study gave.
ALB: Albumin (ALB, Homo sapiens, UniProt P02768)
ADORA2A: Adenosine receptor A2a (ADORA2A, Homo sapiens, UniProt P29274)
uncharacterized protein: uncharacterized protein (Spodoptera exigua, UniProt F1CEY0)
SNF1: Carbon catabolite-derepressing protein kinase (SNF1, Candida albicans, UniProt P52497)

Cc1occc(=O)c1[O-].[Cl-].[W+4].c1cc[cH-]c1.c1cc[cH-]c1 — entropy change (ALB; binding, van't Hoff fluorescence quenching; concentration not given): 107 J/(mol K)
CC[C@@H]1[C@H](F)C(=O)N[C@@H]1COc1nccc2cc(C(N)=O)c(OC)cc12 — inhibition (SNRK (Homo sapiens, UniProt Q9NRH2); ATP-site probe binding, ActivX profiling; THP-1 cell lysate; 0.01 mM, Lys2 site): -4.2%
O=c1cc(-c2ccc([N+](=O)[O-])cc2)[nH]c2c(-c3ccc(Cl)cc3)c(Cc3ccccc3)nn12 — melting temperature shift (Symplekin (Homo sapiens, UniProt Q92797); thermal stability, binder, thermal proteome profiling; RD, cell lysate; 50 µM, 0.5% DMSO; reference: DMSO vehicle): 5.2 °C
CCN1CCC[C@H]1CNC(=O)c1c(O)c(Cl)cc(Cl)c1OC — log2 fold change (TAAR1 (Homo sapiens, UniProt Q96RJ0); β-arrestin recruitment, TANGO luminescence, refers to: TA1; concentration not given; reference: basal luminescence): 0.159
CNCCN1CCN(c2cnc3c(cc(C(=O)NCc4ccc(Cl)cc4)c(=O)n3CC(=O)N3CC(C)(F)C3)n2)C1=O.Cl — Hill slope (DNA polymerase catalytic subunit (Human cytomegalovirus, UniProt P08546); enzyme activity, inhibitor): 0.87
CCCNc1nc(C#Cc2ccc(Cl)s2)nc2c1ncn2[C@H]1[C@H](O)[C@H](O)[C@]2(C(=O)NC)C[C@H]12 — activity (ADORA3 (Homo sapiens, UniProt P0DMS8); receptor activation, agonist; 10 µM; reference: control): 158%
Cc1ccccc1C(=O)Nc1nc2ccccc2[nH]1 — displacement (ADORA2A; binding, radioligand competition; 10 µM, together with: [3H]ZM241385): 1 ± 1%
O=c1nc(SCc2cc(F)cc(C(F)(F)F)c2)nc(SCc2csc3ccc(Cl)cc23)[nH]1 — decatenated DNA (TOP2B (Homo sapiens, UniProt Q02880); decatenation; 125 µM, replicate 1): 0%
CC(=O)C1=C(O)C(=O)N(c2ccc(Br)cc2F)C1C1CCCCC1 (centres unmarked) — Hill slope (CCR1 (Homo sapiens, UniProt P32246); inverse agonist; U2OS; no agonist): -0.4 ± 0.06
O=C(O)[C@@H]1CCCN1c1ncnc2[nH]cnc12 (racemic) — fold enrichment (DNA mismatch repair protein Msh6 (Homo sapiens, UniProt P52701); binding, affinity selection mass spectrometry; reference: other proteins in batch): 1.18
C=CC(=O)N1CCC[C@@H](n2nc(-c3ccc(Oc4ccccc4)cc3)c3c(N)ncnc32)C1 — remaining activity (EPHA2 (Homo sapiens, UniProt P29317); 10 µM): 141%
O=C(CCCCCCC(=O)Nc1ccccc1)NO — TΔS° (HDAC8 (Homo sapiens, UniProt Q9BY41); ITC; Tris-HCl buffer; 283 K): 1.77 kcal/mol
CCOc1ccc(NC(=O)O[C@H](Cn2nc(C(C)C)cc2C(C)C)C(C)C)cc1 — ACh-evoked current (Neuronal acetylcholine receptor; alpha4/beta2 (Homo sapiens, UniProt P17787+P43681); two-electrode voltage clamp; Xenopus oocytes; 3 µM, low-sensitivity stoichiometry, together with: ACh 10 µM; reference: ACh alone): 104 ± 6%
COc1cc(-c2cncc3c2CN(C)Cc2cc(N4CCNCC4)ccc2-3)cc(OC)c1OC — remaining activity (Cyclin-dependent kinase 5, with p35 (CDK5, Homo sapiens, UniProt Q00535); kinase activity; 1 µM, human enzyme, together with: ATP 10 µM; reference: DMSO control): 112%
OC[C@H]1O[C@@H](Oc2cc3c(O)cc(O)cc3[o+]c2-c2cc(O)c(O)c(O)c2)[C@H](O)[C@@H](O)[C@@H]1O — Gibbs free energy (ALB; binding, fluorescence quenching; 40 °C): -6.64 kcal/mol
N[C@H](CNC(=O)c1ccc(-c2cccc(F)c2F)s1)C(=O)O — Hill slope (Glutamate receptor ionotropic, NMDA 1, with GluN2A (Grin1, Rattus norvegicus, UniProt P35439); together with: glutamate 300 µM): 1.48
COc1cc(-c2[o+]c3cc(O)cc(O)c3cc2O[C@@H]2O[C@H](CO)[C@@H](O)[C@H](O)[C@H]2O)cc(O)c1O — Gibbs free energy (ALB; binding, fluorescence quenching; 40 °C): -5.96 kcal/mol
CCNC(=O)/C=C/c1cccc(Br)c1 — normalised signal (SLC6A19 (Homo sapiens, UniProt Q695T7); inhibitor, FLIPR membrane potential; CHO-BC cells; 100 µM; reference: uninhibited control): 0.474 and 0.497 and 0.506 and 0.468 and 0.41
CC(=O)N[C@H](C(=O)N1C[C@H](O)C[C@H]1C(=O)NCc1ccc(-c2scnc2C)cc1)C(C)(C)SCCCCCCNC(=O)C[C@@H]1N=C(c2ccc(Cl)cc2)c2c(sc(C)c2C)-n2c(C)nnc21 — −TΔS (BRD2/VHL, BD2; with VCB (Homo sapiens, UniProt P25440+P40337); ternary complex binding, ITC; 25 °C, together with: VHL-ElonginB-ElonginC titrated into compound:PROTAC:Brd2^BD2 complex): -2.5 ± 0.5 kcal/mol
C=CC[C@@H]1c2ccc(OC)c(OC)c2CN2CCc3cc4c(cc3[C@H]12)OCO4 — remaining activity (P2X purinoceptor 7 (P2RX7, Homo sapiens, UniProt Q99572); ATP-evoked current, inhibitor, whole-cell patch clamp; HEK293 transfected; 3 µM): 9.88%
O=c1nc(SCc2cc(F)cc(C(F)(F)F)c2)nc(SCc2ccc3nc(Cl)ccc3c2)[nH]1 — decatenated DNA (TOP2A (Homo sapiens, UniProt P11388); decatenation; 7.8 µM, replicate 1): 78%
NCCCCC(=O)O — normalised MST signal (SLC6A6 (Homo sapiens, UniProt P31641, Y138A); binding, microscale thermophoresis; 62.5 µM, room temperature, together with: 50 nM labelled protein; higher = more binding): -0.055
N[C@@H](Cc1ccccc1)C(=O)Nc1ccc2ccccc2c1 — Km (Puromycin-sensitive aminopeptidase (Rattus norvegicus, UniProt F1M9V7); substrate): 50 µM
O=c1cc(CO)occ1[O-].[Cl-].[W+4].c1cc[cH-]c1.c1cc[cH-]c1 — Gibbs free energy change (ALB; binding, fluorescence quenching; 317 K): -6.02 kcal/mol
Nc1ncnc2c1ncn2[C@@H]1O[C@H](COP(=O)(O)CP(=O)(O)OP(=O)(O)O)[C@@H](O)[C@H]1O — specific binding (P2X purinoceptor 1 (P2RX1, Homo sapiens, UniProt P51575, D97A); saturation binding; 13 nM): 2360 corrected cpm and 1360 corrected cpm
O=C(c1ccc(F)cc1)c1c[nH]c(C(=O)NCCCn2ccnc2)c1 — ligand efficiency (ADORA2A; radioligand displacement; together with: [3H]ZM241385): 0.29
CCC/C=C\CO — relative fluorescence (uncharacterized protein; binding, 1-NPN competitive displacement; protein 2.0 µM, together with: 1-NPN 20 µM; reference: 1-NPN without compound, lower = stronger binding): 72.6%
O=C(Nc1cccc2c(=O)cc(-c3nnn[nH]3)oc12)c1ccc(OCCCCc2ccccc2)cc1 — inhibition (Volume-regulated anion channel subunit LRRC8C, part LRRC8A IL1 chimera (LRRC8C, Homo sapiens, UniProt Q8TDW0); swelling-activated current, inhibitor, whole-cell patch clamp; transfected HCT116 LRRC8-/- cells; 10 µM, low ionic strength, at +100 mV): 76.3%
Cc1cc(-c2ccnc3[nH]cc(F)c23)cc(F)c1[C@@]1(O)[C@H](C)CN(C2CCS(=O)(=O)CC2)C[C@@H]1C — probe labelling inhibition (JAK1 (Homo sapiens, UniProt P23458); ATP/ADP probe binding, KiNativ; HEK293T lysate; 0.1 µM, activation loop domain 1): -28.2%
CNCC(=O)NC(Cc1cccc(OC)c1I)C(=O)OC (centres unmarked) — activity (OPRK1 (Homo sapiens, UniProt P41145); binding; concentration not given): inactive
CC1(C)[C@@H]2CC[C@@]1(C)[C@@H](O)C2 — relative fluorescence (uncharacterized protein; binding, competitor, fluorescence displacement; 20 µM, pH 7.4, together with: 1-NPN 20 µM; reference: 1-NPN alone): 77.8%
NC/C(=C\F)COc1cccc(Cn2c(=S)[nH]c(=O)c3[nH]cnc32)c1 — inhibition (Amine oxidase copper-containing 3 (Canis lupus familiaris, UniProt A0A8I3MYY3); inhibitor; dog adipose tissue; 0.037 µM): 103%
Nc1nc2c(ncn2[C@@H]2O[C@H](COP(=O)(O)O)[C@@H](O)[C@H]2O)c(=O)[nH]1 — reaction velocity (GUK1 (Homo sapiens, UniProt Q16774); enzyme activity, NADH-coupled; 62.5 µM, together with: NaCl 10 mM): 0.0741 µM/s and 0.0443 µM/s and 0.0684 µM/s
C=CC(=O)N1CCC(C(=O)NCC(=O)N2CCN(c3nc(-c4cnc(N)nc4C(F)F)nc(N4CCOCC4)n3)CC2)CC1 — remaining binding (Ribosomal protein S6 kinase alpha-6, C-terminal kinase domain (RPS6KA6, Homo sapiens, UniProt Q9UK32); KINOMEscan; 1 µM): 95%
N#Cc1ccc2c(-c3ccncc3)c(-c3ccc(F)cc3)nn2c1 — log2 fold change (SNF1; kinase binding, competitor, MIB/MS competition, refers to: SNF1; Candida albicans cell lysate; 10 µM; reference: DMSO): -0.0995
CCc1ccccc1-c1ccc(C(=O)NC[C@@H](N)C(=O)O)s1 — log EC50 (Glutamate receptor ionotropic, NMDA 1, with GluN2C (Grin1, Rattus norvegicus, UniProt P35439, V689I); receptor activation; rat; together with: glutamate 300 µM): -2.29 µM
Oc1ccccc1-c1n[nH]cc1-c1ccnc2ccccc12 — log2 fold change (SNF1; kinase binding, MIB/MS competition; Candida albicans lysate; 10 µM; reference: DMSO, negative = stronger binding): 0.01
CCC[C@@H]1NC(=O)[C@H](CC2CCCCC2)NC(=O)[C@H](CC(C)C)NC(=O)[C@@H]2CCCN2C(=O)[C@@H](NC(=O)[C@H](CCCNC(=N)N)NC(=O)[C@H](CCCNC(=N)N)NC(C)=O)CSSC[C@@H](C(=O)N[C@@H](CCCNC(=N)N)C(=O)N[C@@H](CCCNC(=N)N)C(N)=O)NC(=O)[C@H](C(C)C)NC(=O)[C@@H]2CCCN2C(=O)[C@H](CC(=O)O)NC(=O)[C@H](Cc2ccc(O)cc2)NC(=O)[C@H](CO)NC1=O — lowest bound protein concentration (GTPase KRas, GDP-bound (KRAS, Homo sapiens, UniProt P01116, G12D); affinity selection mass spectrometry; mixture library 1, together with: protein titration up to 5 µM; lower is stronger binding): 2.5 µM
N[C@H](CNC(=O)c1ccc(-c2cccc(F)c2)s1)C(=O)O — Hill slope (Glutamate receptor ionotropic, NMDA 1, with GluN2D (Grin1, Rattus norvegicus, UniProt P35439); together with: glutamate 300 µM): 1.51
CC(C)=CCC/C(C)=C/CO — relative fluorescence (uncharacterized protein; binding, competitor, fluorescence displacement; 20 µM, pH 7.4, together with: 1-NPN 20 µM; reference: 1-NPN alone): 67.2%
C=CC(=O)N1CCC(COCC(=O)N2CCN(c3nc(-c4cnc(N)nc4C(F)F)nc(N4CCOC[C@@H]4C)n3)CC2)CC1 — remaining binding (PRKD2 (Homo sapiens, UniProt Q9BZL6); KINOMEscan; 1 µM): 94%
O=C(O)c1ccc(Nc2ncc3c(n2)-c2ccc(Cl)cc2C(c2c(F)cccc2F)=NC3)cc1 — remaining activity (MINK(h); kinase activity; 1 µM): 104%
C=CC(C)(O)CCC=C(C)CCC=C(C)C (mixture of isomers) — relative fluorescence (uncharacterized protein; binding, competitor, fluorescence displacement; 20 µM, pH 7.4, together with: 1-NPN 20 µM; reference: 1-NPN alone): 66.5%
O=C(COP(=O)(O)O)[C@@H](O)[C@H](O)[C@H](O)COP(=O)(O)O — thermal stability ratio (Prostaglandin E synthase 3 (Homo sapiens, UniProt Q15185); thermal proteome profiling, refers to: PTGES3; HepG2 cell lysate; concentration not given, 57 over 37 °C; reference: compound over control): 0.511 and 0.7 and 0.51
